Measurements collected from several papers.
Protocols differ between the studies behind these lines. Numbers after ± are the reported error.
ESR1: Estrogen receptor (ESR1, Homo sapiens, UniProt P03372)

Sequences of proteins named here, by UniProt entry; tags and fusion partners are left off. A change or cut given only in a name is not applied to a line headed by its entry. Residues count along the entry.
UniProt O15303, 25-877 limits assumed: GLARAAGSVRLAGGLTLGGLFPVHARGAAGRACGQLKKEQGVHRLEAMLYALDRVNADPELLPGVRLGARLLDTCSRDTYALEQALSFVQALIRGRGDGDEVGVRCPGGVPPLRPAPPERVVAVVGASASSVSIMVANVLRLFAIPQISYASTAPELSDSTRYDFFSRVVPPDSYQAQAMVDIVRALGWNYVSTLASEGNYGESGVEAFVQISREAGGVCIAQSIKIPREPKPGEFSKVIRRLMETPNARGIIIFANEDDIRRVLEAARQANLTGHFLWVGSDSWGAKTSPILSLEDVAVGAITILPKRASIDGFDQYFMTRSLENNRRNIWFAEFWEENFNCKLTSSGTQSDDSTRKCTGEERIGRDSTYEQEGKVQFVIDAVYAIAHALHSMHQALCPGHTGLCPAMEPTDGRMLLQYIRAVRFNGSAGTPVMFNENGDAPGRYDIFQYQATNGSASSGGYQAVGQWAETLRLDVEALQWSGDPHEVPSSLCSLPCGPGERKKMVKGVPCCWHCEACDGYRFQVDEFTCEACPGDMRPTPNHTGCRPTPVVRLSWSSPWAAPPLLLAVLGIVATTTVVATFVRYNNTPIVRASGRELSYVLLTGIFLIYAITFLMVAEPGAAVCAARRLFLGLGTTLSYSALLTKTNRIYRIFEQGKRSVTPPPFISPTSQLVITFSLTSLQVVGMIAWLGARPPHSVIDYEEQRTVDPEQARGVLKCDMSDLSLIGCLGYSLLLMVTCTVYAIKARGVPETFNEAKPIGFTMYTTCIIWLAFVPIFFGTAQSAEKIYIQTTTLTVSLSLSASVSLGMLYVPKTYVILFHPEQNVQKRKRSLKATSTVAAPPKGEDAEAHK
UniProt Q9NRM7, whole entry: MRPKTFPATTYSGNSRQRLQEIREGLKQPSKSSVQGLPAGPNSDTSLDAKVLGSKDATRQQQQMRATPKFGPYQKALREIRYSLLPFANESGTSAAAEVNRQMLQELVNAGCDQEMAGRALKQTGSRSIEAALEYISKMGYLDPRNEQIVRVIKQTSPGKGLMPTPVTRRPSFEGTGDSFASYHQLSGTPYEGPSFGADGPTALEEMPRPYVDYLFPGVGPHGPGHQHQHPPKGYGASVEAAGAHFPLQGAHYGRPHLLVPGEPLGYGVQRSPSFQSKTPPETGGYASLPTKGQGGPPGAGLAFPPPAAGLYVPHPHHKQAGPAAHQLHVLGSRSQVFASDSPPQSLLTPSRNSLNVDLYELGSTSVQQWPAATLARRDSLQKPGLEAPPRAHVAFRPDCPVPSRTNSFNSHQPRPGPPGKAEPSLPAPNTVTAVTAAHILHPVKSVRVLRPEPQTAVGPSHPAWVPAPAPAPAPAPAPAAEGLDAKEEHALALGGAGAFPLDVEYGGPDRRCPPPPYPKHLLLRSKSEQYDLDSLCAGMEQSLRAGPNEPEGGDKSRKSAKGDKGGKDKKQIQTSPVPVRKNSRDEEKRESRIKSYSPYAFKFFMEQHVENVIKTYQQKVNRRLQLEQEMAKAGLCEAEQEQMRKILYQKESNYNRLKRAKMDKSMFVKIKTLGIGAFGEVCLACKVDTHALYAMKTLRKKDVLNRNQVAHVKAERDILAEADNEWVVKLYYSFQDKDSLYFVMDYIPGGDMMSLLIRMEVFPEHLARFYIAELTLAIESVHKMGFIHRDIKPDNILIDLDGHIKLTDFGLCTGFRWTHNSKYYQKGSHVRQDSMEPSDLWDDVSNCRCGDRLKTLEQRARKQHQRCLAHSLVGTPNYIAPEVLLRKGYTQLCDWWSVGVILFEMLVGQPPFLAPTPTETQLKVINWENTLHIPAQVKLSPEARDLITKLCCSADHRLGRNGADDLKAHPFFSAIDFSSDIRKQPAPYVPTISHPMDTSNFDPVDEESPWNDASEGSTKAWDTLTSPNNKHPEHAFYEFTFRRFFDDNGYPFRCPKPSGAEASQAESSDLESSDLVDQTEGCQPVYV
UniProt P08253, 110-660 limits assumed: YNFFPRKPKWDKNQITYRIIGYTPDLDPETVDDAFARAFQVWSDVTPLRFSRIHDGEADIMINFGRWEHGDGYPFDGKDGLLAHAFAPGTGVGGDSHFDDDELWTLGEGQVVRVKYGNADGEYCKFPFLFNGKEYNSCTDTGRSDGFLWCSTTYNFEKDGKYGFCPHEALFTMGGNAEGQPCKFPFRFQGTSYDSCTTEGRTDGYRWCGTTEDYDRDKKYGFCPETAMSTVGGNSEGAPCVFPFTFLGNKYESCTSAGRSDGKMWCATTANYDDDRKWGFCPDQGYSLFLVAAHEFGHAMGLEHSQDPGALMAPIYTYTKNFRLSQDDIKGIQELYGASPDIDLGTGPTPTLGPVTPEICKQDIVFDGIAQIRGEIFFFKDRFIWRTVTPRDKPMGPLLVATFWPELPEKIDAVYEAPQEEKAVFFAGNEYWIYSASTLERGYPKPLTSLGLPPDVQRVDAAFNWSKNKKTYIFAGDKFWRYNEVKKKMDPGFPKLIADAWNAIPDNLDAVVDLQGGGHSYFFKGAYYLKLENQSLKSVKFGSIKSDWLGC
UniProt P04062, whole entry R534H, looked up: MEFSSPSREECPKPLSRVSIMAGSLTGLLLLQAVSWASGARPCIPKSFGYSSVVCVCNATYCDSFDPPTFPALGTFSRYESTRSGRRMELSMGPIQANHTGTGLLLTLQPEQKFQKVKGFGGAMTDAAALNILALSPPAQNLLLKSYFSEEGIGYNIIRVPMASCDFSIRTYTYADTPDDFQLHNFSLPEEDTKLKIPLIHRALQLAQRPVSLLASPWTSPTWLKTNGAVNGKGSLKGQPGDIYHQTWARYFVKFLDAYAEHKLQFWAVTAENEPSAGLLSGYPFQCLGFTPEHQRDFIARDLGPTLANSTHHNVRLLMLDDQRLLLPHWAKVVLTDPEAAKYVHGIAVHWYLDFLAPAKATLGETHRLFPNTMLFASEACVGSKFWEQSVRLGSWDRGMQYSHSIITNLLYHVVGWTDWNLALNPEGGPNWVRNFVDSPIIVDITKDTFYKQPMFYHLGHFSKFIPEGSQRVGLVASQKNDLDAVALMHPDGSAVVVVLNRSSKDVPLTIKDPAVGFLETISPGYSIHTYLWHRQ
UniProt A0A381MCS3, 1-451: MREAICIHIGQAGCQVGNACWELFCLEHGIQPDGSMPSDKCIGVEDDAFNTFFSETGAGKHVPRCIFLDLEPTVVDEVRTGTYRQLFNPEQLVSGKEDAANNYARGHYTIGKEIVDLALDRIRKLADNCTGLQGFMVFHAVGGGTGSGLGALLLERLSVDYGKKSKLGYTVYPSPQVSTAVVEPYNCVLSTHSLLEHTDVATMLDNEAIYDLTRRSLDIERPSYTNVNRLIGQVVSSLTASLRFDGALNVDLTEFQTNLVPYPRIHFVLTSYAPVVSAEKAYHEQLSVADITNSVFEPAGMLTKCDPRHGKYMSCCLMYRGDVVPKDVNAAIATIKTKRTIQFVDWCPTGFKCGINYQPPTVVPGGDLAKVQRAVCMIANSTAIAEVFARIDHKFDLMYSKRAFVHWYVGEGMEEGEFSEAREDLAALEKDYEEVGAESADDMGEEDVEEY
UniProt Q00960, 27-1482 limits assumed: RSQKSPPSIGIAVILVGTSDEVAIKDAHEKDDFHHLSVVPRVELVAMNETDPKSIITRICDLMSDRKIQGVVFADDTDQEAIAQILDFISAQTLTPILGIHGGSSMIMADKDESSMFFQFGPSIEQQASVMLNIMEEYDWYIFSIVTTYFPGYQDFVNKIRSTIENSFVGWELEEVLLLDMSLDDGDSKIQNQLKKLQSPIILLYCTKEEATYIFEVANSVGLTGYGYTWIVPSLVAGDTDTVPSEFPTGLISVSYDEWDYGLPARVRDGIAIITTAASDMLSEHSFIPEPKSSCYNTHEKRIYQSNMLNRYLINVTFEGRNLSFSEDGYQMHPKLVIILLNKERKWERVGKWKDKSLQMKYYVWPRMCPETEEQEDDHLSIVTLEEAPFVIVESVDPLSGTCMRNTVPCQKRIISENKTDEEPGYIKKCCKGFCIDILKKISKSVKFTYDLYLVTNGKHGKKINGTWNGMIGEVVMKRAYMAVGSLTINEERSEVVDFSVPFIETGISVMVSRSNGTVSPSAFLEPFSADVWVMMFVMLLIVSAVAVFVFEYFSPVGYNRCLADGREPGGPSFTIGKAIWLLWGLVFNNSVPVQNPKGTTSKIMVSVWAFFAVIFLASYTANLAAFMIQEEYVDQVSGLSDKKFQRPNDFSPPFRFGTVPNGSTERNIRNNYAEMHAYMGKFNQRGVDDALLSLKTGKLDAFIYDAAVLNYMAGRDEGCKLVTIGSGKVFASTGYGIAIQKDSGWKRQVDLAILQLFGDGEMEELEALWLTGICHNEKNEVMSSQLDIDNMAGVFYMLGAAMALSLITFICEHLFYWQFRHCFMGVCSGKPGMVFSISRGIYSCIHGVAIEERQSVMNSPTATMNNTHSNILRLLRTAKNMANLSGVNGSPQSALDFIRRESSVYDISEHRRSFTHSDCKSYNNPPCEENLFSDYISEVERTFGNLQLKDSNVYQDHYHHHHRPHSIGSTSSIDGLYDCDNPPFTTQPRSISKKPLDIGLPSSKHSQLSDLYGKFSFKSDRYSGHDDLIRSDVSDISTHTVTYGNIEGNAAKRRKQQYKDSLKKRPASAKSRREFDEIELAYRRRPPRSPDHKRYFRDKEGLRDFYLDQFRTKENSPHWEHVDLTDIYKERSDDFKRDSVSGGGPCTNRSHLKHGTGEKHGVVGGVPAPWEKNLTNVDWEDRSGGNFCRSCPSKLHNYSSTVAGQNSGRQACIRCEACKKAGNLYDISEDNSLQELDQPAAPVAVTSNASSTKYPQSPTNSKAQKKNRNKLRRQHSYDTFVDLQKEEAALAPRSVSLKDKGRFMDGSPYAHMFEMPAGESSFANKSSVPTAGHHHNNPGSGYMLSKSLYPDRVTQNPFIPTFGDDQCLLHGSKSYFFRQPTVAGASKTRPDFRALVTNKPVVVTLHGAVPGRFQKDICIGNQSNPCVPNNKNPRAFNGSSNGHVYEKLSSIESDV
UniProt Q13164, whole entry: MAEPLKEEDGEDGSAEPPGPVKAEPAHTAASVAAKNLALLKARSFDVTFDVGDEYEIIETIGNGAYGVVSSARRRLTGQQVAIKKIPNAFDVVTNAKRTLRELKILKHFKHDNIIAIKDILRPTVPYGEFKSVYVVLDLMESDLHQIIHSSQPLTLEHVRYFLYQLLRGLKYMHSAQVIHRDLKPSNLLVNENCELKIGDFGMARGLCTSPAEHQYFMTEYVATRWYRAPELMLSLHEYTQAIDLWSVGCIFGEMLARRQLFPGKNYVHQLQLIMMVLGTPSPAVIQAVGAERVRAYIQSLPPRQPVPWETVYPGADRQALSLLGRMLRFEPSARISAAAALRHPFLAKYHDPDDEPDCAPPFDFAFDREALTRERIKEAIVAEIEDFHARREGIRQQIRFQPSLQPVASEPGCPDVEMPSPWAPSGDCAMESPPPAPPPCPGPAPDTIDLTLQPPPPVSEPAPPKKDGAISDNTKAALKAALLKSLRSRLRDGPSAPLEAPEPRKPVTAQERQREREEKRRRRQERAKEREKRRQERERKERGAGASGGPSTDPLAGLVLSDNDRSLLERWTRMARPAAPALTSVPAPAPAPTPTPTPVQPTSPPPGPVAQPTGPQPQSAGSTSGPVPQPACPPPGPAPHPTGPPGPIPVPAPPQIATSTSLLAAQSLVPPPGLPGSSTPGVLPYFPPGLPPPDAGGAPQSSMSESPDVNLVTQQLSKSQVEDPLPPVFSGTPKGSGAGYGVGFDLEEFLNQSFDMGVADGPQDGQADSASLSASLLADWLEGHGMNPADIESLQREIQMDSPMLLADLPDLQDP
UniProt P11362, 478-767 limits assumed: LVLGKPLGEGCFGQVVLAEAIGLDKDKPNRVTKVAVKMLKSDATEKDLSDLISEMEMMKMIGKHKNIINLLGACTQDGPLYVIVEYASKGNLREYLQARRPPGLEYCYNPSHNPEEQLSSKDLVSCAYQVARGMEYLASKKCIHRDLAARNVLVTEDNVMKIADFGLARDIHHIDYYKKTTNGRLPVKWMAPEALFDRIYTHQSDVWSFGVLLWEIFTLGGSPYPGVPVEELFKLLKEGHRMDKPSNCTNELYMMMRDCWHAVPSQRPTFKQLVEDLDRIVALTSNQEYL
UniProt A0A8I3MXG6, 1-394: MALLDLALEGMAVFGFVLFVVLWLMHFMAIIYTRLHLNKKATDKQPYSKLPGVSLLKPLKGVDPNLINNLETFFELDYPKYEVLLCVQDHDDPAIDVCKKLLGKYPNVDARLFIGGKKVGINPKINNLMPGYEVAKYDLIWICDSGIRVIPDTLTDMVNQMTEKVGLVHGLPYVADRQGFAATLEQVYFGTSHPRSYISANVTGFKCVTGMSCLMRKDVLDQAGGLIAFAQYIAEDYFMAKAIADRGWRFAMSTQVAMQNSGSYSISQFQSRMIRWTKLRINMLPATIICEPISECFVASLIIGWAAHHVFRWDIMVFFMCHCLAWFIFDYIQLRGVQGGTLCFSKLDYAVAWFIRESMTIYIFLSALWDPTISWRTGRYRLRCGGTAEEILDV

CSc1cc(NC(=O)c2ccccn2)ccc1Cl — IC50 (Metabotropic glutamate receptor 6 (Homo sapiens, UniProt O15303); antagonist): > 30 µM
Cc1cnccc1-c1ccc(C2(c3ccc(Cl)cc3)CCNCC2)cc1 — IC50 (LATS2 (Homo sapiens, UniProt Q9NRM7); kinase activity, inhibitor, radiometric HotSpot; with: ATP 10 µM): 0.061 µM
CC1(C)C(=S)Nc2ccccc21 — IC50 (MMP2 (Homo sapiens, UniProt P08253); inhibitor): > 200 µM
OC[C@H]1[C@@H](O)[C@H](O)[C@@H](O)CN1CCCCCOCCc1ccsc1 — IC50 (GBA1 (Homo sapiens, UniProt P04062, R534H); inhibitor, 4-methylumbelliferyl glucoside): 205 µM
COc1cc([C@@H]2c3cc4c(cc3[C@](O)(C3(O)CCOCC3)[C@H]3COC(=O)[C@H]23)OCO4)cc(OC)c1OC — IC50 (Tubulin alpha/beta heterodimer (Leishmania infantum, UniProt A0A381MCS3+A4HTR0); tubulin polymerization, inhibitor; 37 °C, with: tubulin 1.2 mg/mL): 5.5 µM
O=C(O)CNC(=O)c1cc(C(=O)O)cc([C@H]2CCN[C@@H]2C(=O)O)c1 — IC50 (Glutamate receptor ionotropic, NMDA 2B, with GluN1 (Grin2b, Rattus norvegicus, UniProt Q00960); ion current, antagonist, two-electrode voltage clamp; Xenopus oocytes; GluN1/GluN2B, with: glycine 100 µM and glutamate 1 µM): 5.76 ± 0.22 µM
CC(C)CNC(=O)CSc1nc2ccc(NC(=O)CSc3ccc(C(F)(F)F)cc3)cc2s1 — IC50 (ESR1; reporter gene, antagonist; HEC-1 transfected ERα luciferase reporter): 17 µM
Cc1ccccc1OCCCSCc1nc2ccccc2[nH]1 — IC50 (CHD1L (Homo sapiens, UniProt Q86WJ1); ATPase activity, inhibitor; 1 h, 37 °C, with: ATP 10 µM): 2.29 µM
COc1cc(C(=O)N2CCC(N3CCN(C)CC3)CC2)ccc1Nc1ncc2c(n1)N(C1CCC1)c1ccccc1C(=O)N2C — IC50 (MAPK7 (Homo sapiens, UniProt Q13164); kinase activity): 0.075 ± 0.009 µM
O=C(CCCCCn1c(=S)[nH]c2ccccc2c1=O)N1CCN(c2ccc(Cl)cc2)CC1 — IC50 (ESR1; reporter gene, coactivator binding inhibitor, luciferase reporter; HEC-1 cells transfected with ERα; partial inhibition, with: estradiol 1 nM): 9.3 µM
O=C(O)CCc1nc2sc3cc(-c4ccc(Cl)cc4)ccc3c2c(=O)[nH]1 — IC50 (FGFR1 (Homo sapiens, UniProt P11362); kinase activity, inhibitor, AlphaScreen; with: biotinylated peptide substrate): 18 µM
COc1ccc2[nH]cc(/C=C/c3c[nH]c4ccccc34)c2c1 — IC50 (Amyloid-beta precursor protein, amyloid-beta peptide (APP, Homo sapiens, UniProt P05067); Aβ42 oligomerisation, ELISA): 9.2 µM
NC(=O)c1cn(-c2ccc(F)cc2)c2ccc(OCc3ccncc3)cc2c1=O — IC50 (Grm2 (Rattus norvegicus, UniProt P31421); calcium mobilization, negative allosteric modulator): 0.895 µM
COc1ccc(S(=O)(=O)Oc2ccccc2NC(=O)c2cnccn2)cc1 — IC50 (P2X purinoceptor 7 (P2RX7, Homo sapiens, UniProt Q99572); calcium mobilisation, antagonist; MCF7 transfected with target; with: Bz-ATP 100 µM): 2.28 ± 0.231 µM
O=C(CC1Cc2ccccc2C1)N[C@H](CN1CC[C@@H](F)C1)[C@H](O)c1ccc2c(c1)OCCO2 — IC50 (UGCG (Canis lupus familiaris, UniProt A0A8I3MXG6); enzyme activity, inhibitor; MDCK cell homogenate membranes): 0.0436 µM
COc1ccc2[nH]cc(/C=C/c3cccc(OS(C)(=O)=O)c3)c2c1 — IC50 (IDO1 (Homo sapiens, UniProt P14902); enzyme activity, inhibitor): > 50 µM
O=C(Nc1ccc(-c2nc3ccc(NC(=O)C4CCCC4)cc3s2)cc1)C1CCCC1 — IC50 (Tyrosine-protein kinase SYK, with FCER1G (SYK, Homo sapiens, UniProt P43405); protein binding, inhibitor, TR-FRET): > 100 µM
N#Cc1cnc(Nc2nc3ccccc3o2)nc1-c1cc(Cl)cc(Cl)c1 — IC50 (Grm5 (Rattus norvegicus, UniProt P31424); calcium mobilization, negative allosteric modulator; with: glutamate EC80): > 30 µM
Nc1ccc(Cl)c2cccnc12 — IC50 (METAP1 (Homo sapiens, UniProt P53582); enzyme activity, inhibitor): > 40 µM
